Published values pooled from the literature.
Parts stem from different laboratories: compare values within a part only. Changes are numbered by the printed parent chain.

Block 1 — method: DHFR PCA, deep sequencing; medium: yeast; with: (+)-ABA 200 µM; baseline: wild-type fitted maximum; direction: higher = stronger binding
Target: ABI1, truncated, D143A, DHFR fusion (Arabidopsis thaliana)
Notes: methotrexate growth selection, single substitutions
Starting sequence: PYL1, truncated, DHFR fusion (Arabidopsis thaliana); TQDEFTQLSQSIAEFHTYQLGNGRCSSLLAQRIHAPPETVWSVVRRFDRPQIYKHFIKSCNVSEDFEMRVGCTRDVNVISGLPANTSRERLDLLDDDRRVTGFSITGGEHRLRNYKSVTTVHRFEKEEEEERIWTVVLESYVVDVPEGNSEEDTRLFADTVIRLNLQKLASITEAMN; partner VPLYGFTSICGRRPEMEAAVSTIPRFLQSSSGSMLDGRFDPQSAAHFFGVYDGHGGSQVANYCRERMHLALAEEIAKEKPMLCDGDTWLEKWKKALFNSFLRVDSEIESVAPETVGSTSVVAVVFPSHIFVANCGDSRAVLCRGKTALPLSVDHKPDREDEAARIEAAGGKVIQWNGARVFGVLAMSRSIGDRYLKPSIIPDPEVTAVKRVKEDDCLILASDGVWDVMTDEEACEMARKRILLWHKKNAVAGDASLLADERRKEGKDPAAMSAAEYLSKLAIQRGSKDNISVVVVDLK
| Substitution | relative binding score [%] |
| --- | --- |
| N85W | 102 |
| E4L | 99.4 |
| P37A | 89.3 |
| E128Q | 105 |
| E4N | 91.6 |
| E38M | 71.1 |
| D97V | 103 |
| R88G | 59.2 |
| T119C | 96.8 |
| E129F | 100 |

Block 2 — method: protein binding microarray; form: double-stranded DNA, one strand shown; medium: in vitro; tested at: not given; baseline: not given; direction: higher = stronger binding
Target: Histone acetyltransferase KAT6A, winged helix 2, GST fusion (KAT6A, Homo sapiens, UniProt Q92794, residues 85-181)
Notes: 8-mer, flanks averaged, mean of 2 arrays, mostly near background
Residues (chain): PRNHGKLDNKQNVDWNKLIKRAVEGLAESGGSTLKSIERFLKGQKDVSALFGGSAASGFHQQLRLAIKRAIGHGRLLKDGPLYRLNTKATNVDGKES
| Strand | E-score |
| --- | --- |
| GCACAGAC | 0.155 |
| CAGGCCTC | -0.217 |
| ATATCAGA | 0.106 |
| GCTTTGCA | 0.0524 |
| AACCCTCC | -0.0518 |
| AATTGAAA | -0.05 |
| CGCCGGAC | 0.148 |
| ATCTACTG | -0.0302 |
| AGTATCAC | -0.104 |
| ATGGACCG | -0.0705 |
| GATTCCCA | -0.065 |

Block 3 — method: competition protein-binding microarray; form: double-stranded DNA, one strand shown; medium: in vitro; tested at: 2 µM; with: Cbf1 competitor, 0.05 µM; direction: higher = stronger binding
Target: Phosphate system positive regulatory protein PHO4, full length, GST-tagged (PHO4, Saccharomyces cerevisiae, UniProt P07270, residues 1-312)
Notes: whole 60-bp probe, lowest competitor level
Target sequence (chain): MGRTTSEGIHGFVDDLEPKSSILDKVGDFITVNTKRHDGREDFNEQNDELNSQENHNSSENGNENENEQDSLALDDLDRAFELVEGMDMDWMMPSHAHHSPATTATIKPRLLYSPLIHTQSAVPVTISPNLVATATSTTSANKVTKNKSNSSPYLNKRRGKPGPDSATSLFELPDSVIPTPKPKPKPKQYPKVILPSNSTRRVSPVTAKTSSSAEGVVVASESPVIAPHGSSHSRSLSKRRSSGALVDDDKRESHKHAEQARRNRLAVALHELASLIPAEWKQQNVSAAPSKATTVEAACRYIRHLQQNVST
| Strand | fluorescence intensity |
| --- | --- |
| CTTCTGTAAATTTTTCACGTGGCGTGAAGCGCCCCGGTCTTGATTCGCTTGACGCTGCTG | 13100 a.u. |
| TAAGAAAATACCGGTCATATGACAACAGAGACAAGAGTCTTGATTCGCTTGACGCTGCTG | 3340 a.u. |
| AAAGCGGTAATTTTTCACGTGACATCACATATCTATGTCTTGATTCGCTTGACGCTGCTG | 12500 a.u. |
| TTCTCTTCCGATATGACCGTGCTTTTAGCTGTTAGCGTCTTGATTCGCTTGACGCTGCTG | 7310 a.u. |
| GCCGCAAATGGCAATCACATGACAATGGCTTGGCCCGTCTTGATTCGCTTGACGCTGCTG | 5970 a.u. |
| AGTACTGTAGGCTTGCACACTTTGTTCGCACTCTTAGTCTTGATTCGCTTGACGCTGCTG | 5200 a.u. |
| CTTCTGTAAATTTGTGGCGTGGGTGGACGCGCCCCGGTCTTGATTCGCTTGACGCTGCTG | 6410 a.u. |
| CTGTGGGAGAGCCAGTTCGTGCCAGCCGTTATTTCTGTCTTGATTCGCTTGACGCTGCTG | 7050 a.u. |
| AAAGCGGTAATTTGCGGGGTGGGTGCAGATATCTATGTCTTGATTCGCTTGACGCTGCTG | 5070 a.u. |
| AAATTACTAAGTTGCCTCGTGGGTGACGCCGTATGAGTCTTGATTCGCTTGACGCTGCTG | 11500 a.u. |
| TGGCGTTCGACGACTCATGTGTGTTAGATTGGGACAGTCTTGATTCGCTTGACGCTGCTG | 7120 a.u. |
| CTAACGAAGGTTTGTCACGCCACTTACAAGCCAAGTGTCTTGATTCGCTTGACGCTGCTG | 5510 a.u. |

Mixed results
| Molecule | target | assay | system | conditions | scale | endpoint | result |
| --- | --- | --- | --- | --- | --- | --- | --- |
| PhoQ, residues 284 288 289 292 302 303 NLGVHL | PhoP, residues 12 14 15 18 19 HEGLL (Escherichia coli, UniProt P23836) | Sort-seq, measured: YFP reporter | E. coli | PhoQ-PhoP variant library, with: 10 µM Mg2+ | baseline: high Mg2+ state, higher = stronger signaling | fold induction | 8.54 |

Excerpt of the above (block 2):
| Strand | E-score |
| --- | --- |
| AACCCTCC | -0.0518 |
| ATCTACTG | -0.0302 |
| CAGGCCTC | -0.217 |
| CGCCGGAC | 0.148 |
| AATTGAAA | -0.05 |
